{"data": "Measured values from different studies", "note": "Parts stem from different laboratories: compare values within a part only. Several values in a cell are separate wells, animals, samples, runs or records."}
{"data": "Series 1", "organism": "Arabidopsis thaliana", "strain": "Col-0", "tested at": "6.25 µg/mL", "setting": "seed germination"}
{"Structure (SMILES)": "CN1C(=O)C(O)(C(=O)O)Oc2cc(F)ccc21 (stereo not drawn)", "root length [cm]": 1.05}
{"Structure (SMILES)": "CC(C)=CCN1C(=O)C(O)(C(=O)O)Oc2cc(F)ccc21 (stereo not drawn)", "root length [cm]": 1.15}
{"Structure (SMILES)": "O=C(O)C1(O)Oc2cc(F)ccc2N(Cc2ccccc2)C1=O (stereo not drawn)", "root length [cm]": 0.475}
{"Structure (SMILES)": "CCCN1C(=O)C(O)(C(=O)O)Oc2cc(F)ccc21 (stereo not drawn)", "root length [cm]": 0.922}
{"Structure (SMILES)": "COc1ccc2c(c1)OC(O)(C(=O)O)C(=O)N2Cc1ccccc1 (stereo not drawn)", "root length [cm]": 1.18}
{"Structure (SMILES)": "O=C(O)C1(O)Oc2cc(Br)ccc2N(Cc2ccccc2)C1=O (stereo not drawn)", "root length [cm]": 1.05}
{"Structure (SMILES)": "O=C(O)C1(O)Oc2ccccc2N(Cc2ccccc2)C1=O (stereo not drawn)", "root length [cm]": 1.25}
{"Structure (SMILES)": "CCN1C(=O)C(O)(C(=O)O)Oc2cc(F)ccc21 (stereo not drawn)", "root length [cm]": 0.987}
{"data": "Series 2", "Compound": "COCC1CC2C(CCC3(C)C(O)CCC23)c2ccc(O)cc21 (stereo not drawn)", "technique": "DNA microarray", "relative to": "untreated cells"}
{"cell line": "A549", "item": "MCM4", "tested at": "100 µM", "mRNA level ratio": 0.541}
{"cell line": "SK-OV-3", "item": "RFC3", "tested at": "concentration not given", "setting": "higher dose arm", "mRNA level ratio": 0.845}
{"cell line": "A549", "item": "AURKA", "tested at": "100 µM", "mRNA level ratio": 0.505}
{"cell line": "PANC-1", "item": "ACTA2", "tested at": "concentration not given", "setting": "lower dose arm", "mRNA level ratio": 0.776}
{"cell line": "PANC-1", "item": "GADD45A", "tested at": "concentration not given", "setting": "lower dose arm", "mRNA level ratio": 0.928}
{"cell line": "PANC-1", "item": "KIF20A", "tested at": "concentration not given", "setting": "lower dose arm", "mRNA level ratio": "0.673 and 0.662 and 0.665 and 0.669 and 0.643"}
{"cell line": "A549", "item": "GDF15", "tested at": "50 µM", "mRNA level ratio": 2.35}
{"cell line": "A549", "item": "GINS1", "tested at": "100 µM", "mRNA level ratio": 0.583}
{"data": "Mixed results"}
{"Compound": "FC(F)(F)c1ccc(C2=NOC3(NC(c4ccccc4)=NO3)N2c2ccccc2)cc1 (stereo not drawn)", "target or system": "Huh-7", "assay": "cell growth or viability, ATP luminescence", "conditions": "20 µM, 72 h", "quantity": "viability", "result": "~60%"}
{"Compound": "Cn1cc(-c2cccc(CN3CCC4(CC3)COc3c4ccc4c3CN([C@H]3CCC(=O)NC3=O)C4=O)c2)cn1", "system": "rats", "conditions": "intravenous, 1.02 mg/kg", "quantity": "steady-state volume of distribution", "result": "2960 mL/kg"}
{"note": "Repeated from above (series 1):"}
{"Structure (SMILES)": "CN1C(=O)C(O)(C(=O)O)Oc2cc(F)ccc21 (stereo not drawn)", "root length [cm]": 1.05}
{"Structure (SMILES)": "CC(C)=CCN1C(=O)C(O)(C(=O)O)Oc2cc(F)ccc21 (stereo not drawn)", "root length [cm]": 1.15}
{"Structure (SMILES)": "O=C(O)C1(O)Oc2cc(F)ccc2N(Cc2ccccc2)C1=O (stereo not drawn)", "root length [cm]": 0.475}
